Results gathered from unrelated publications.
Every numbered part comes from another study and shows a few of its results, in no order.
Chain of UniProt O14936 (whole entry, looked up): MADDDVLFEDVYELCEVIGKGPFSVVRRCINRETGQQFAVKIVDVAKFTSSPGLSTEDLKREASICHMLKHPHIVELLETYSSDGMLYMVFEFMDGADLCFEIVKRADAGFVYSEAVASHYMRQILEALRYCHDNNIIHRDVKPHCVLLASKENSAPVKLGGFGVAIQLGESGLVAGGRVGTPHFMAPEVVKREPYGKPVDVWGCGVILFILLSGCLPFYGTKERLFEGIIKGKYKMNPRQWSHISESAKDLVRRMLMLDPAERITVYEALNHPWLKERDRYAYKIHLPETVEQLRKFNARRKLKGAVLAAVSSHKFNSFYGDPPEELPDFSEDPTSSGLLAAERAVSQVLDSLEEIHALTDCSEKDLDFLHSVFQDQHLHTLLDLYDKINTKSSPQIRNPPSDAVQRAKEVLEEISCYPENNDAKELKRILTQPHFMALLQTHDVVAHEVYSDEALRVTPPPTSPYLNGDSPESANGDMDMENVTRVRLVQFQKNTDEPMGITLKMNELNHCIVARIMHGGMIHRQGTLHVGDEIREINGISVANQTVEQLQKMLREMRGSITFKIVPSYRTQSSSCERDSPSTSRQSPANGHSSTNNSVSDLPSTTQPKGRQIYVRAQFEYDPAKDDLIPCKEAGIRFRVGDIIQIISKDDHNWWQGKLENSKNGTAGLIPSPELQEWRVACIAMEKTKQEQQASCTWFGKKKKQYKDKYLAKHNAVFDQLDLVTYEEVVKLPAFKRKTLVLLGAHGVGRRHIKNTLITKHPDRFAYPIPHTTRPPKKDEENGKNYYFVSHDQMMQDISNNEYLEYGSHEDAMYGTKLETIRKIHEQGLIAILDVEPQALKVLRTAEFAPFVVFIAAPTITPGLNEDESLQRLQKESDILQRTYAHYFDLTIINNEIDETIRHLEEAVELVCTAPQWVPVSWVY
Chain of UniProt P42336 (whole entry, unmodified, looked up): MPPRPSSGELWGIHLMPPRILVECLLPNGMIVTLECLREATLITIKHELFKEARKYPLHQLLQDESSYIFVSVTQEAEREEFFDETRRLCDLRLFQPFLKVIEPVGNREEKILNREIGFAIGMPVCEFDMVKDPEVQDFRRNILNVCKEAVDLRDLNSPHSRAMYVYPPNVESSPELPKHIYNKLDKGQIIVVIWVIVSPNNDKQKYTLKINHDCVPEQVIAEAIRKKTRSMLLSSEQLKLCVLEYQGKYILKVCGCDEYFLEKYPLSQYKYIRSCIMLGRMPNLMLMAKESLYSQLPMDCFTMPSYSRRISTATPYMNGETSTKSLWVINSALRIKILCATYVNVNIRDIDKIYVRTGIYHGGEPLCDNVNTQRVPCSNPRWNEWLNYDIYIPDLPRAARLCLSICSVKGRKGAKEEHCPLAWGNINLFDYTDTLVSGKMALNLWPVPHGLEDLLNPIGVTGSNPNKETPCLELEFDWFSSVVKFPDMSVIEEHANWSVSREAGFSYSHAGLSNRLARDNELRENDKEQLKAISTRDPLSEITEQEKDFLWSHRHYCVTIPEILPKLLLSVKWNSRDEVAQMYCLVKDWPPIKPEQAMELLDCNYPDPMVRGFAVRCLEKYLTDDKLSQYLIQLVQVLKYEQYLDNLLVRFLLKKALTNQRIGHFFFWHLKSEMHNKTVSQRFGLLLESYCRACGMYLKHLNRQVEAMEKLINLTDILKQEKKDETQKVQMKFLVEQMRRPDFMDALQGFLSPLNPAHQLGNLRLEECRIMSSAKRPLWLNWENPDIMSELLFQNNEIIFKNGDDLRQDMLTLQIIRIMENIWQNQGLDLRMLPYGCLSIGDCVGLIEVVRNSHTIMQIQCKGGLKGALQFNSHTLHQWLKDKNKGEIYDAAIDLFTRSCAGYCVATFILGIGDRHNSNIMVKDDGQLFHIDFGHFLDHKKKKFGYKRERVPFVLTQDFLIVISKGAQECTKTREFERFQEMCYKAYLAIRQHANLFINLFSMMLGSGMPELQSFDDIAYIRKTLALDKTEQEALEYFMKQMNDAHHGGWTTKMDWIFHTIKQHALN
Chain of UniProt P49336 (whole entry, looked up): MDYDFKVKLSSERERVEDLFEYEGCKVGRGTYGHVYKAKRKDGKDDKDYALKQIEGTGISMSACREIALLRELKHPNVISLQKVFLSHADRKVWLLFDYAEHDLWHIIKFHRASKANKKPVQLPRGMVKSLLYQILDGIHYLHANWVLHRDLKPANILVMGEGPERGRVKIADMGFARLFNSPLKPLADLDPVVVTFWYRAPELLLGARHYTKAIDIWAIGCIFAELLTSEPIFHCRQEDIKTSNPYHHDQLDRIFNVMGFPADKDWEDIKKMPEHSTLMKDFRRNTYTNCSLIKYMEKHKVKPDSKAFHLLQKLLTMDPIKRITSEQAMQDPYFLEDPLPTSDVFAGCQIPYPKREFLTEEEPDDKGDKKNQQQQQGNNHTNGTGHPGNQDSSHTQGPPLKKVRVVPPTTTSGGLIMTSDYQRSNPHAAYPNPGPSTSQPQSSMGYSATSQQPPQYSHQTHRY
Chain of UniProt Q06187 (whole entry, looked up): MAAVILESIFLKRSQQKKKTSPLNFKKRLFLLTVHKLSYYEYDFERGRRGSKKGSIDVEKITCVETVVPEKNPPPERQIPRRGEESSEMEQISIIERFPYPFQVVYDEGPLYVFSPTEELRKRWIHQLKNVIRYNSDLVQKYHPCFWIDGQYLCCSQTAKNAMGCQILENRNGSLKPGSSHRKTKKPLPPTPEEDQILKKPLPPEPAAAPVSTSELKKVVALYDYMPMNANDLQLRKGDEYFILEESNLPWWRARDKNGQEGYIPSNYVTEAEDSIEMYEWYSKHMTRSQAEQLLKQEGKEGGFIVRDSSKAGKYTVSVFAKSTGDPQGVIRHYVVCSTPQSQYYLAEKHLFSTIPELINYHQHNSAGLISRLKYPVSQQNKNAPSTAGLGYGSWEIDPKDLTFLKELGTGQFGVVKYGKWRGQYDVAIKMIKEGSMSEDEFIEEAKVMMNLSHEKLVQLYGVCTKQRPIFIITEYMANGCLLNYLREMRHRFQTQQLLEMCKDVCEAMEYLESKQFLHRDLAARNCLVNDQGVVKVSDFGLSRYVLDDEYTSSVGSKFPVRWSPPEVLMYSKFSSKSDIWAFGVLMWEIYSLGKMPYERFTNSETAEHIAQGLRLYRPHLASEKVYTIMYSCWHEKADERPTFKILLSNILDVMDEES
Chain of UniProt Q96D53 (whole entry, looked up): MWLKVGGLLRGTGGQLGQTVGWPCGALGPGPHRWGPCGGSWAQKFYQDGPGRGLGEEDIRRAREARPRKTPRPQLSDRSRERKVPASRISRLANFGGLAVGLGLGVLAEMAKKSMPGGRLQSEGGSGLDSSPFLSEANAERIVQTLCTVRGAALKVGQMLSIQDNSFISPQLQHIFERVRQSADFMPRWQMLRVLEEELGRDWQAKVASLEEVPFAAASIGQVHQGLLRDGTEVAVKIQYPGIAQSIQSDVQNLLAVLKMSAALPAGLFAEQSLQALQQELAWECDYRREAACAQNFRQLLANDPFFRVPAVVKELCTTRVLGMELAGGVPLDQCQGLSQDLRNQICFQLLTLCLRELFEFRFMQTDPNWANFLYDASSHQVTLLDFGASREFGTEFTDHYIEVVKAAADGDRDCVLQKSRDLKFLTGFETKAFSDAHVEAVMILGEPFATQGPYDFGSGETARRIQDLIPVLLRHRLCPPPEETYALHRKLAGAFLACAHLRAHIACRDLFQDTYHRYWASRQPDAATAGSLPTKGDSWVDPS
Chain of UniProt Q9P1W9 (whole entry, looked up): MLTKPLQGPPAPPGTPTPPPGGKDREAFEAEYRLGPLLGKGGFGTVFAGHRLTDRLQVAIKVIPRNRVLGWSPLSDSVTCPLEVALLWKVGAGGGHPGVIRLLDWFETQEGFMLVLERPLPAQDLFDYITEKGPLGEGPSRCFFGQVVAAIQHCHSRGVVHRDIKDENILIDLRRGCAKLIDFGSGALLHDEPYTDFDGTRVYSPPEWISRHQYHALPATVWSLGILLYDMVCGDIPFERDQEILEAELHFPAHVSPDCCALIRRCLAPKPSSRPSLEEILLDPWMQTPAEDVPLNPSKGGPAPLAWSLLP

Study 1 — observed: cell-free assay; method: competition with immobilised ligand; concentration: 1 µM
Structure (SMILES): CN1CCN(c2cnc3c(C4CCN(C(=O)c5ccc(OC(F)(F)F)cc5N)CC4)ncnc3c2)CC1
For Phosphatidylinositol 4,5-bisphosphate 3-kinase catalytic subunit alpha isoform (PIK3CA, Homo sapiens, UniProt P42336, C420R): remaining binding read 94%.
It gave 0.1% for remaining binding (Mitogen-activated protein kinase 7 (MAPK7, Homo sapiens, UniProt Q13164)).
Serine/threonine-protein kinase pim-2 (PIM2, Homo sapiens, UniProt Q9P1W9) — remaining binding: 100%.
The remaining binding was 100% (Proto-oncogene tyrosine-protein kinase ROS (ROS1, Homo sapiens, UniProt P08922)).
Tyrosine-protein kinase ABL1, non-phosphorylated (ABL1, Homo sapiens, UniProt P00519, Q252H) — remaining binding: 79%.
The remaining binding was 100% (Microtubule-associated serine/threonine-protein kinase 1 (MAST1, Homo sapiens, UniProt Q9Y2H9)).
It gave 85% for remaining binding (Misshapen-like kinase 1 (MINK1, Homo sapiens, UniProt Q8N4C8)).
Receptor tyrosine-protein kinase erbB-2 (ERBB2, Homo sapiens, UniProt P04626) — remaining binding: 100%.
For Cyclin-dependent kinase 8 (CDK8, Homo sapiens, UniProt P49336): remaining binding read 100%.
The remaining binding was 100% (Tyrosine-protein kinase BTK (BTK, Homo sapiens, UniProt Q06187)).
It gave 100% for remaining binding (Calcium/calmodulin-dependent protein kinase kinase 1 (CAMKK1, Homo sapiens, UniProt Q8N5S9)).
The remaining binding was 89% (Peripheral plasma membrane protein CASK (CASK, Homo sapiens, UniProt O14936)).
For Atypical kinase COQ8B, mitochondrial (COQ8B, Homo sapiens, UniProt Q96D53): remaining binding read 100%.

Study 2 — species: mouse; medium: microsomes or S9; concentration: 2 µM; time: 0.5 h
`CN(C)CCCn1c(-c2ccccc2)c(-c2ccccc2)c2c1ncn1nc(-c3ccncc3)nc21` has a remaining compound of 85.1%.
The remaining compound of `COc1cc(C2CC(=O)c3cc4c(O)n[nH]c4nc3C2)cc(OC)c1OC` (centres unmarked) is reported as 77%.
`COc1ccc(-n2ccc3cc(NC(=O)N4CCCCC4)ccc32)cc1Cl` has a remaining compound of 71.3%.

Study 3 — method: universal PBM; form: double-stranded DNA, one strand shown; medium: in vitro; concentration: 600 nM; direction: higher = stronger binding
Target: Sal-like protein 4, full length isoform A (SALL4, Homo sapiens, UniProt Q9UJQ4, residues 1-1053)
Chain of UniProt Q9UJQ4 (whole entry, looked up): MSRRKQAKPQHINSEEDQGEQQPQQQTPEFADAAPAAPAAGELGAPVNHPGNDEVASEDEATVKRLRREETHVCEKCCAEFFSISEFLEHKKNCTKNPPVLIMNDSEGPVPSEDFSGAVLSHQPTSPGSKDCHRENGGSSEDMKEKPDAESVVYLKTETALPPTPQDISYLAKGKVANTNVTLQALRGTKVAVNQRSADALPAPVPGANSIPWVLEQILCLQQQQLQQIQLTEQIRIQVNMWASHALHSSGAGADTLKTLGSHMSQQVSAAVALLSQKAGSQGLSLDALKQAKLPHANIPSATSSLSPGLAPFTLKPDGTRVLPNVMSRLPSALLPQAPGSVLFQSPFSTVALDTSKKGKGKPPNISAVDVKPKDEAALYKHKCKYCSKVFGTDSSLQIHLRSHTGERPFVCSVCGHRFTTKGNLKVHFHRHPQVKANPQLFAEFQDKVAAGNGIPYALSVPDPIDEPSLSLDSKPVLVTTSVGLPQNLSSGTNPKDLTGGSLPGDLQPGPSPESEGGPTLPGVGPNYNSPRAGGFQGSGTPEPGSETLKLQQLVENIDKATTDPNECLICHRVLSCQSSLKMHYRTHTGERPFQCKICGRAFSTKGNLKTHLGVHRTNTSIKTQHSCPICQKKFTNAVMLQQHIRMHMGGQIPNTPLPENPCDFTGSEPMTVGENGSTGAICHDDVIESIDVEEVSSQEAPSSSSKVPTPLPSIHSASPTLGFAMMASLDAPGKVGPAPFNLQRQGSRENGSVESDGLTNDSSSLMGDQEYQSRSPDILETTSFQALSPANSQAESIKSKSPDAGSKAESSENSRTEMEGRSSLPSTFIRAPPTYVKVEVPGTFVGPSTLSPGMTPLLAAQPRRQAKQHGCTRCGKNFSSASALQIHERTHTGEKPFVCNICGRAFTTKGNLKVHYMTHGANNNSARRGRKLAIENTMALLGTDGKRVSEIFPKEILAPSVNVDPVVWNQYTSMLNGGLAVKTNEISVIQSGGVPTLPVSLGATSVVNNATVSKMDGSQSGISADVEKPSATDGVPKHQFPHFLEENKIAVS
Notes: 8-mer, flanks averaged, mean of replicates
For `CTTTATCC`, the E-score was -0.00344.
For `AGCGTATA`, the E-score was 0.16.
`ATACCTCG` has an E-score of 0.175.
For `GCGAAATA`, the E-score was 0.162.
`ACCTCAGC` gave an E-score of -0.11.
For `ATGTGAGC`, the E-score was -0.117.
For `CGACCCAG`, the E-score was -0.332.
`GTGAGATA` gave an E-score of 0.198.

Mixed results — cell line: mouse MPNST tumor cells; method: high-content immunofluorescence imaging; measured: nuclear SOX9; concentration: 10 µM; time: 12 h; notes: mean of 2 replicates; baseline: DMSO control; direction: higher = more nuclear SOX9
For `C[C@@H](NCCCc1cccc(C(F)(F)F)c1)c1cccc2ccccc12`, “nuclear SOX9 intensity” read 152 % of DMSO.
Under “nuclear SOX9 intensity”, `Nc1nc(NCCc2ccc(O)cc2)nc2nc(-c3ccco3)nn12` is recorded as 98.6 % of DMSO.

A few entries again (study 2):
`CN(C)CCCn1c(-c2ccccc2)c(-c2ccccc2)c2c1ncn1nc(-c3ccncc3)nc21` has a remaining compound of 85.1%.
The remaining compound of `COc1cc(C2CC(=O)c3cc4c(O)n[nH]c4nc3C2)cc(OC)c1OC` (centres unmarked) is reported as 77%.
`COc1ccc(-n2ccc3cc(NC(=O)N4CCCCC4)ccc32)cc1Cl` has a remaining compound of 71.3%.
